Results from different studies.
Compare with care: the assays were run in different laboratories. Values joined by “and” are separate records of one study, mostly repeats; a detail may differ. ± marks the error that the study gave. ≈ marks a conversion by molar mass, not a printed value.

CNC(C)C1CCC(N)C(OC2C(N)CC(N)C(OC3OCC(C)(O)C(NC)C3O)C2O)O1 (stereo not shown)
survival (Acinetobacter baumannii; 19606, biofilm; 50 µg/mL, without HNP1): 0% and 1.04%

CCCCCCCc1cc(=O)c2ccccc2[nH]1
IC50 (Plasmodium yoelii; 17XL; 384-well): 0.512 ± 0.038 µM

O=C(COC(=O)c1n[nH]c2ccccc12)Nc1ccc(N2CCCCC2)cc1
IC50 (Tetrahymena pyriformis and Klebsiella pneumoniae; virulence in co-culture): 0.69 µM

CC[C@H](C)[C@H](NC(=O)[C@H](C)NC(=O)[C@H](CCCCN)NC(=O)[C@H](CC(C)C)NC(=O)[C@H](C)NC(=O)[C@@H](NC(=O)[C@H](Cc1c[nH]cn1)NC(=O)[C@H](CC(C)C)NC(=O)[C@@H](NC(=O)[C@@H](NC(=O)[C@H](CCCCN)NC(=O)[C@H](C)NC(=O)[C@H](C)NC(=O)[C@H](CO)NC(=O)[C@H](CCCCN)NC(=O)[C@H](Cc1ccccc1)NC(=O)[C@@H](NC(=O)[C@H](CCCCN)NC(=O)[C@H](CC(C)C)NC(=O)[C@H](Cc1ccccc1)NC(=O)[C@H](CO)NC(=O)[C@H](CCCCN)NC(=O)[C@H](Cc1c[nH]c2ccccc12)NC(=O)[C@H](CCCCN)NC(C)=O)[C@@H](C)O)[C@@H](C)O)C(C)C)[C@@H](C)O)C(=O)N[C@@H](CO)C(=O)N[C@@H](CO)C(N)=O
MIC50 (Klebsiella pneumoniae; 40 strains): 8 mg/L (≈ 2.73 µM)

CO[C@H]1/C=C/O[C@@]2(C)Oc3c(C)c(O)c4c(O)c(c(/C=N/N5CCN(C)CC5)c(O)c4c3C2=O)NC(=O)/C(C)=C\C=C\[C@H](C)[C@H](O)[C@@H](C)[C@@H](O)[C@@H](C)[C@H](OC(C)=O)[C@@H]1C
MIC90 (Mycolicibacterium aurum; REMA; ATCC 23366): 1.25 mg/L (≈ 1.52 µM)

COC1=CC(c2ccc[nH]2)=N/C1=C\c1cc(Cc2ccc(C(F)(F)F)cc2)c(C)[nH]1.Cl
parasitaemia reduction (Plasmodium yoelii; CF1 mice; oral, 25 mg/kg daily for 4 days, day 5; baseline: vehicle): 100%

CC1NC(=O)C(C(=O)NC(C(=O)NC2C(=O)N3C2SC(C)(C)C3C(=O)O)c2ccccc2)=C1O (stereo not shown)
MIC (Escherichia coli; broth microdilution; Keio mutant JW5086-3; 18 h, ferrienterobactin permease gene): 50 mg/L (≈ 102 µM)

CSCC[C@H](NC(=O)[C@H](CCCCN)NC(=O)[C@H](CCSC)NC(=O)[C@H](CCCCN)NC(=O)[C@H](CC(C)C)NC(=O)[C@H](CC(C)C)NC(=O)[C@H](CCCNC(=N)N)NC(=O)[C@H](CC(=O)O)NC(=O)[C@H](CCCCN)NC(=O)[C@H](Cc1c[nH]c2ccccc12)NC(=O)[C@H](Cc1ccc(O)cc1)NC(=O)[C@H](Cc1ccccc1)NC(=O)[C@H](CCCNC(=N)N)NC(=O)[C@@H]1CCCN1C(=O)[C@@H](NC(=O)[C@H](CCCNC(=N)N)NC(=O)[C@@H](N)CO)C(C)C)C(=O)N[C@@H](C)C(=O)O
MBC (Staphylococcus haemolyticus): 64 mg/L (≈ 27.5 µM)

COc1ccc2c(ccc3oc([N+](=O)[O-])c(OC)c32)c1
MIC90 (Mycolicibacterium aurum; REMA; ATCC 23366): > 32 mg/L

C[C@@H](O)[C@H]1C(=O)N2C(C(=O)O)=C(S[C@@H]3CN[C@H](C(=O)N(C)C)C3)[C@H](C)[C@H]12
lung bacterial burden reduction (Acinetobacter baumannii; ATCC 19606, rat lung infection, lung; 30 mg/kg; baseline: early control): -1.32 log10 CFU/g

CCCCCCn1nnc2c1CCN(c1ccc(C(F)(F)F)cc1)C2
EC50 (human adenovirus 2; viral replication; HEL): > 100 µM

C=CC1(C)CC(OC(=O)CSc2nc3ccccc3s2)C2(C)C(C)CCC3(CCC(=O)C32)C(C)C1O (stereo not shown)
IC50 (Tetrahymena pyriformis and Klebsiella pneumoniae; virulence in co-culture): 15.8 µM

CC1(C)SC2C(NC(=O)C(NC(=O)C3=C(O)C(Cc4ccc([N+](=O)[O-])cc4)NC3=O)c3ccccc3)C(=O)N2C1C(=O)O (stereo not shown)
MIC (Escherichia coli; broth microdilution; ATCC 35218, low-level TEM-1; no clavulanic acid): > 200 mg/L

Cc1ncc([N+](=O)[O-])n1CCO
MIC50 (Prevotella spp.; bacterial growth): 0.5 mg/L (≈ 2.92 µM)

CCCCCC[C@H]1C(=O)O[C@H](C)[C@H](NC(=O)c2cccc(NC=O)c2O)C(=O)O[C@@H](C)[C@@H]1OC(=O)CC(C)C
viral protein level (bovine herpesvirus 1; Western blot; MDBK cells, wild type; 20 nM, 24 h): decreased

CC1=C(C)/C(=C/c2cc(Cc3ccc(OC(F)(F)F)cc3)c(C)[nH]2)N=C1c1ccc[nH]1.Cl
parasitaemia reduction (Plasmodium yoelii; CF1 mice; oral, 25 mg/kg daily for 4 days, day 5; baseline: vehicle): 100%

O=C(Nc1ccccc1O)c1ccc(Oc2cccc(C(=O)Nc3ccccc3O)c2)cc1
inhibition (Plasmodium yoelii; oxygen consumption; 17XL; 2 µM): 4%

Nc1ncnc2c1ncn2[C@@H]1O[C@@H]2COP(=O)(O)O[C@H]3[C@@H](O)[C@H](n4cnc5c(=O)[nH]cnc54)O[C@@H]3COP(=O)(O)O[C@H]2[C@H]1O
fold enrichment (Zika virus; upregulated Reactome pathway, RNA sequencing, measured: Peptide ligand-binding receptors (R-HSA-375276); HFF-1; baseline: ZIKV-infected untreated): 5.06

COc1cccc(C(=O)NN(C(=O)c2cc(C)cc(C)c2)C(C)(C)C)c1C
egg number (Anopheles gambiae s.l.; resistant; tarsal contact, 367 mg/m^2, added: RME 100 mg/m^2; baseline: control): decreased

Cc1c2c(nn1C)CSCc1cc(n(C)n1)CSc1cc(c3ccccc3c1)OCCCc1c(C(=O)O)n(C)c3c-2c(Cl)ccc13
protein level fold change (Staphylococcus aureus; label-free proteomics, measured: acyP; SA113; concentration not given; baseline: untreated): 6.59

COCC(=O)N1CCC[C@H](C(=O)NCc2nc(-c3ccc(C#N)cc3)cs2)C1
EC50 (Plasmodium falciparum; Dd2 β5 S27F resistant): 45 ± 8.5 µM

COc1cc2ccc3oc([N+](=O)[O-])cc3c2cc1OC
MIC90 (Klebsiella aerogenes; REMA): > 32 mg/L

O=[N+]([O-])c1cnc2ccccc2c1O
IC50 (Tetrahymena pyriformis and Klebsiella pneumoniae; virulence in co-culture): 3.45 µM

CN(C)[C@@H]1C(O)=C(C(N)=O)C(=O)[C@@]2(O)C(O)=C3C(=O)c4c(O)cccc4[C@@](C)(O)[C@H]3C[C@@H]12
survival (Acinetobacter baumannii; 19606, biofilm; 25 µg/mL, without HNP1): 49.8% and 65.7% and 64.6% and 59.3% and 60.8% and 55.1%

Fc1cccc(Cn2nnc3c2CCN(c2ccc(C(F)(F)F)cc2)C3)c1
EC50 (human adenovirus 2; viral replication; HEL): > 100 µM

C/N=C(/NC)c1ccc(NC(=O)/C=C/c2ccc(/C=C/C(=O)Nc3ccc(/C(=N\C)NC)cc3)cc2)cc1
IC50 (Tetrahymena pyriformis and Klebsiella pneumoniae; virulence in co-culture): 0.09 µM

COc1cc2oc([N+](=O)[O-])cc2c2ccccc12
MIC90 (Mycolicibacterium aurum; REMA; ATCC 23366): 0.5 mg/L (≈ 2.06 µM)

CC[C@H](C)C[C@H](C)CCCCCCCCC(=O)N[C@H]1C[C@@H](O)[C@@H](NCCN)NC(=O)[C@@H]2[C@@H](O)CCN2C(=O)[C@H]([C@H](O)CCN)NC(=O)[C@H]([C@H](O)[C@@H](O)c2ccc(O)cc2)NC(=O)[C@@H]2C[C@@H](O)CN2C(=O)[C@H]([C@@H](C)O)NC1=O
MFC (Pichia norvegensis; broth dilution; ATCC 96139; 48 h, 37 °C): 0.5 mg/L (≈ 0.457 µM)

COc1ccc2c(-c3nc(-c4c(C)[nH]c5ccc(OC)cc45)cs3)c[nH]c2c1
IC50 (Human papillomavirus 16; viral replication, Hirt-qPCR; C-33-A; transient E1/E2-dependent ori replication): 0.1 µM

COC(=O)N[C@H](C(=O)N1CCC[C@H]1c1ncc(-c2ccc(-c3ccc(-c4cnc([C@@H]5CCCN5C(=O)[C@@H](NC(=O)OC)C(C)C)[nH]4)cc3)cc2)[nH]1)C(C)C
combination index (Hepatitis C virus; replicon cells; 50% effect level, added: NS5B palm site II inhibitor, ratio 2.5:1): 0.66

O=C(N/N=C/c1ccc2ccccc2c1)c1ccc(O)c(O)c1
IC50 (Tetrahymena pyriformis and Klebsiella pneumoniae; virulence in co-culture): 6.27 µM

COC1=CC(c2ccc[nH]2)=N/C1=C\c1[nH]c(Cc2ccccc2)cc1Cc1ccccc1.Cl
parasitaemia reduction (Plasmodium yoelii; CF1 mice; oral, 10 mg/kg daily for 4 days, day 5; baseline: vehicle): 98%

CS(=O)(=O)CCCn1c(Cn2c(=O)n(CC(F)(F)F)c3ccncc32)cc2cc(Cl)ccc21
LS mean difference vs placebo (respiratory syncytial virus; RT-qPCR; hospitalized infants 1-24 months, nasal swab; oral, 1-9 mg/kg daily, day 14, all doses combined; baseline: placebo): -0.74 log10 copies/mL

O=[N+]([O-])c1ccc(C2=[N+]([O-])c3ccccc3N3CCN=C23)cc1
MIC50 (Parabacteroides distasonis and Bacteroides spp.; bacterial growth): ≤ 0.06 mg/L

COC1=CC(c2ccc[nH]2)=N/C1=C\c1cc(Cc2ccc(Cl)cc2)c(C)[nH]1.Cl
parasitaemia reduction (Plasmodium yoelii; CF1 mouse; oral, 80 mg/kg single dose, day 5): 100%

CCOC(=O)/C(C#N)=C(\O)c1ccc(NC(=O)c2cccs2)cc1
IC50 (Tetrahymena pyriformis and Klebsiella pneumoniae; virulence in co-culture): 0.33 µM

Cn1c(=O)ccc2ccc(F)c(CCNC[C@H]3CN(c4cnc5c(n4)NC(=O)CO5)C(=O)O3)c21
MIC90 (Klebsiella aerogenes): 0.25 mg/L (≈ 0.534 µM)

A few entries again:
C=CC1(C)CC(OC(=O)CSc2nc3ccccc3s2)C2(C)C(C)CCC3(CCC(=O)C32)C(C)C1O (stereo not shown)
IC50 (Tetrahymena pyriformis and Klebsiella pneumoniae; virulence in co-culture): 15.8 µM

CC1(C)SC2C(NC(=O)C(NC(=O)C3=C(O)C(Cc4ccc([N+](=O)[O-])cc4)NC3=O)c3ccccc3)C(=O)N2C1C(=O)O (stereo not shown)
MIC (Escherichia coli; broth microdilution; ATCC 35218, low-level TEM-1; no clavulanic acid): > 200 mg/L
